Results collected from several papers.
Parts stem from different laboratories: compare values within a part only. Positions count from the first letter of the parent shown.

Series 1
Target: CCND1, cyclin fold, Cln2 fusion (human)
Method: yeast growth competition, sequencing
Matrix: yeast
Notes: weak parent motif
Baseline: not given
Reading: higher = stronger binding
Starting sequence: GMNC docking peptide (human); KNAKRNLSSEFAN
Variant | normalised enrichment score
KNAKRNLSSEWAN [F11W] | 0.41
KNAKRNLSSEMAN [F11M] | 0.288
KNAKRNLHSEFAN [S8H] | 0.353
KNAKWNLSSEFAN [R5W] | 0.45
KNAKRNLSGEFAN [S9G] | 0.201
KNAQRNLSSEFAN [K4Q] | 0.531
KNAKRMLSSEFAN [N6M] | -0.11
KNAKRNGSSEFAN [L7G] | 0.0785
KNAPRNLSSEFAN [K4P] | 0.274
KNAKRNDSSEFAN [L7D] | 0.428
KNAKRNLLSEFAN [S8L] | 1
KNSKRNLSSEFAN [A3S] | 0.363
KNAKRTLSSEFAN [N6T] | 0.212

Series 2
Target: CREB3L1, bZIP domain (human)
Method: DHFR protein complementation
Matrix: yeast
Notes: single substitutions, most at no-binding floor
Baseline: wild-type JUN-FOS pair
Reading: higher = stronger binding
Starting sequence: JUN, bZIP domain (human); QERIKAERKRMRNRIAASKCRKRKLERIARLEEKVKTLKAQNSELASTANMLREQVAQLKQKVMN; partner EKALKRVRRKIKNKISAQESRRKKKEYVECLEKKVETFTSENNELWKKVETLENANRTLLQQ
Variant | binding fitness [natural log]
L38D | -1.18
A57K | -1.5
T48I | -1.36
K39M | -1.26
L52Q | -1.48

Series 3
Target: ABI1, truncated, D143A, DHFR fusion (Arabidopsis thaliana)
Method: DHFR PCA, deep sequencing
Matrix: yeast
Notes: methotrexate growth selection, single substitutions
With: (+)-ABA 0.0091 µM
Baseline: wild-type fitted maximum
Reading: higher = stronger binding
Starting sequence: PYL1, truncated, DHFR fusion (Arabidopsis thaliana); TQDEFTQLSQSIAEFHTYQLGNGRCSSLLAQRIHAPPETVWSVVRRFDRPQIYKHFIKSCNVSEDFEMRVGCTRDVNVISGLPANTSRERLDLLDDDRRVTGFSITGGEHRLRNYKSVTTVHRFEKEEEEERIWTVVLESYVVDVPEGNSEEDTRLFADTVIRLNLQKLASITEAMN; partner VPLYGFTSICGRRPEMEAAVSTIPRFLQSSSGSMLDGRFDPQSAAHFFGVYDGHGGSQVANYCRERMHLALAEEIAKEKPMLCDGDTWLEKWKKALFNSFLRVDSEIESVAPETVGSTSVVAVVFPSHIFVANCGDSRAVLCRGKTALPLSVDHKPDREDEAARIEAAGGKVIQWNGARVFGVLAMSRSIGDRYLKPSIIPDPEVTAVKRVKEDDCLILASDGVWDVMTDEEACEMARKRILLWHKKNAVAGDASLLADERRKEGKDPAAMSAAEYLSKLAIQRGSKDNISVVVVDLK
Variant | relative binding score [%]
L91F | 3.23
T1P | 27.2
L94N | -4.38
F124G | 3.97
K168N | 62.4
I57K | 14
H16L | -4.69
S117T | 3.4
L164V | 2.94
E64W | 1.91

Single results of other studies
Molecule | target | assay | test system | conditions | scale | measurement | value
PhoQ, residues 284 288 289 292 302 303 TNASYF | PhoP, residues 12 14 15 18 19 YHFSH (Escherichia coli, UniProt P23836) | Sort-seq, refers to: YFP reporter | E. coli | PhoQ-PhoP variant library, with: 10 µM Mg2+ | baseline: high Mg2+ state, higher = stronger signaling | fold induction | 1.75

Excerpt of the above (series 3):
Variant | relative binding score [%]
F124G | 3.97
E64W | 1.91
L91F | 3.23
T1P | 27.2
